Published values of several laboratories.
Parts stem from different laboratories: compare values within a part only. Substitutions count along the parent as printed.
UniProt Q6DT37, sequence (whole entry, looked up): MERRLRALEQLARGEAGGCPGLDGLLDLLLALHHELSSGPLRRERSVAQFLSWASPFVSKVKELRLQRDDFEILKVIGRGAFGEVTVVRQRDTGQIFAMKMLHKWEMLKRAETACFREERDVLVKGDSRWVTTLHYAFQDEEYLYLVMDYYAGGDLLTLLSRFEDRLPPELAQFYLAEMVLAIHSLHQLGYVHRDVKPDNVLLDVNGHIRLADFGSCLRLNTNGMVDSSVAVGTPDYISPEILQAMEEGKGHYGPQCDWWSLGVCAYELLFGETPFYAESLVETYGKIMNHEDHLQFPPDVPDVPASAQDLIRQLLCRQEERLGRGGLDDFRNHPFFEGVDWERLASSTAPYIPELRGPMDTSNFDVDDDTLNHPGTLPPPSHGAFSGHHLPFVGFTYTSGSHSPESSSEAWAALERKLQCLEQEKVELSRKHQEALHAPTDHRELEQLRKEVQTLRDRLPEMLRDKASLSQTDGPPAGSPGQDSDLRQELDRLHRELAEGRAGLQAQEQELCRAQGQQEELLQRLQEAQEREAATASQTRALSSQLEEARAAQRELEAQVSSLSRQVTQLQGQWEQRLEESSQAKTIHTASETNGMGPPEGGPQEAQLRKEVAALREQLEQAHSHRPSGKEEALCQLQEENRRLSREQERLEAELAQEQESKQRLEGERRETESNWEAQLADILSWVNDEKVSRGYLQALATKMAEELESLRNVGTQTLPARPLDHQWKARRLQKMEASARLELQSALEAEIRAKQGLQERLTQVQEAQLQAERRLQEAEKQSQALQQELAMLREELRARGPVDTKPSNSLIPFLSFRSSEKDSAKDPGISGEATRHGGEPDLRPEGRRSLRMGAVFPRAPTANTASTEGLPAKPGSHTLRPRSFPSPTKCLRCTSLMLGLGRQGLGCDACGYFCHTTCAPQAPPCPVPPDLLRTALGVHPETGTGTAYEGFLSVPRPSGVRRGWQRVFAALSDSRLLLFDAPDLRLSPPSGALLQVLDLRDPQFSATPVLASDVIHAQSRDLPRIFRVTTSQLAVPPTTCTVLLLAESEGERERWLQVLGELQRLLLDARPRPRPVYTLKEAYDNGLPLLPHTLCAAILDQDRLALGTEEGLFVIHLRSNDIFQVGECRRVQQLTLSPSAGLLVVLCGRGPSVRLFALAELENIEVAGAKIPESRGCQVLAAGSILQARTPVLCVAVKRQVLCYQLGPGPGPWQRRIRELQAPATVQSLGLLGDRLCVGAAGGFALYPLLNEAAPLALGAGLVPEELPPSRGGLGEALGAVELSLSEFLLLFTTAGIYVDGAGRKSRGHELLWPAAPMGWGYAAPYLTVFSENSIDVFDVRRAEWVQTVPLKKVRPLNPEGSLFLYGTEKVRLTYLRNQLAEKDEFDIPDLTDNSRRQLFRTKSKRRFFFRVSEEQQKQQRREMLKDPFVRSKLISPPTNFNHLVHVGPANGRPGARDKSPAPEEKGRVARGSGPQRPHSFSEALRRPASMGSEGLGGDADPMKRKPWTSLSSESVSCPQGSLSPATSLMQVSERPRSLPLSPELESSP
UniProt P53778, sequence (whole entry, looked up): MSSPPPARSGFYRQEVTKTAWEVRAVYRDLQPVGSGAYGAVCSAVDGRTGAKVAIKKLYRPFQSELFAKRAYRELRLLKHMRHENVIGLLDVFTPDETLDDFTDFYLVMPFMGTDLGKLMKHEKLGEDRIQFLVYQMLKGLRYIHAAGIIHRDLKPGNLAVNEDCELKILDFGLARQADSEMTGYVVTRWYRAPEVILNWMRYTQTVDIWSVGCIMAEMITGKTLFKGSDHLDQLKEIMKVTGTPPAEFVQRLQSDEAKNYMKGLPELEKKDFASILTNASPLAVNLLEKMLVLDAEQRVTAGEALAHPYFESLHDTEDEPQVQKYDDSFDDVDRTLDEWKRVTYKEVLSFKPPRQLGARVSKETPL
UniProt P22607, sequence (whole entry, looked up): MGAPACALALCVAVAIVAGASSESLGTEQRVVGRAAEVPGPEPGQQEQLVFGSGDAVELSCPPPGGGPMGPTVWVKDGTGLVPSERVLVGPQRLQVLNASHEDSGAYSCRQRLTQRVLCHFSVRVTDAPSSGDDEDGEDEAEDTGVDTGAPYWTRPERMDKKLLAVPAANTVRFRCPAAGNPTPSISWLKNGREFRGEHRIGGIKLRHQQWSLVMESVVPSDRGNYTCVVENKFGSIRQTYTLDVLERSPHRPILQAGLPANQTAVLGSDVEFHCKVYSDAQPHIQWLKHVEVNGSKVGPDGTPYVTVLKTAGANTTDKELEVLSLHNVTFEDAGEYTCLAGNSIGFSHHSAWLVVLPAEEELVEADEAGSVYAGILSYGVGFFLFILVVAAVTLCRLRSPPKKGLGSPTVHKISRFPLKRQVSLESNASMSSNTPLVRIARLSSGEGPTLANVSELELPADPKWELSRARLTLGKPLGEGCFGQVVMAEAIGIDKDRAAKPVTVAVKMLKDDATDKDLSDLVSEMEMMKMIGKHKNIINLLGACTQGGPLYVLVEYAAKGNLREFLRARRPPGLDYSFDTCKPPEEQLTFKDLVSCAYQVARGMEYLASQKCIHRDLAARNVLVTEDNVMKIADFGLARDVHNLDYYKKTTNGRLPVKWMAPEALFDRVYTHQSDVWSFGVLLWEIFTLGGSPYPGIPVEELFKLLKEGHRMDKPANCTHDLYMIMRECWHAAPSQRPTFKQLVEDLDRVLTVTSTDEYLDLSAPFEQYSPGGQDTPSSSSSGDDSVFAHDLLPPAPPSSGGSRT
UniProt Q8IWQ3, sequence (whole entry, looked up): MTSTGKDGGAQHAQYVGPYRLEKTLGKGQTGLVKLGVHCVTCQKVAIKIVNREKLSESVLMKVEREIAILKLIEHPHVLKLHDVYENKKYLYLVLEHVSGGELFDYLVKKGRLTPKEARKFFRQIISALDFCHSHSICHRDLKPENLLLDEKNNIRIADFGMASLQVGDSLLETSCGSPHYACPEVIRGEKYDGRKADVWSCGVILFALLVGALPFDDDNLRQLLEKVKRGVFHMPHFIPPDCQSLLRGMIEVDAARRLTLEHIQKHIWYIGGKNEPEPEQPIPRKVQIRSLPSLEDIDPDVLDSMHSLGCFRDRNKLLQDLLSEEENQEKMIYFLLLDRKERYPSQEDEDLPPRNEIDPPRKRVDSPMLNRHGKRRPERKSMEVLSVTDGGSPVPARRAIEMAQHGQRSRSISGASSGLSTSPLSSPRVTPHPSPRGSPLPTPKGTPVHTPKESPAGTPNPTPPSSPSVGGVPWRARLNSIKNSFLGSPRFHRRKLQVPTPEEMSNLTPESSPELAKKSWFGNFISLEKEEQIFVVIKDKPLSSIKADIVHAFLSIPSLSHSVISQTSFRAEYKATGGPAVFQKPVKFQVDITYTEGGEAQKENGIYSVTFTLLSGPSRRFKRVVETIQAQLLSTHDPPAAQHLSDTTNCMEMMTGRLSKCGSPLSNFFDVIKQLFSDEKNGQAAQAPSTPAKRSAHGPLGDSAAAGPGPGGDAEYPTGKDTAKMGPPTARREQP
UniProt Q06187, sequence (whole entry, looked up): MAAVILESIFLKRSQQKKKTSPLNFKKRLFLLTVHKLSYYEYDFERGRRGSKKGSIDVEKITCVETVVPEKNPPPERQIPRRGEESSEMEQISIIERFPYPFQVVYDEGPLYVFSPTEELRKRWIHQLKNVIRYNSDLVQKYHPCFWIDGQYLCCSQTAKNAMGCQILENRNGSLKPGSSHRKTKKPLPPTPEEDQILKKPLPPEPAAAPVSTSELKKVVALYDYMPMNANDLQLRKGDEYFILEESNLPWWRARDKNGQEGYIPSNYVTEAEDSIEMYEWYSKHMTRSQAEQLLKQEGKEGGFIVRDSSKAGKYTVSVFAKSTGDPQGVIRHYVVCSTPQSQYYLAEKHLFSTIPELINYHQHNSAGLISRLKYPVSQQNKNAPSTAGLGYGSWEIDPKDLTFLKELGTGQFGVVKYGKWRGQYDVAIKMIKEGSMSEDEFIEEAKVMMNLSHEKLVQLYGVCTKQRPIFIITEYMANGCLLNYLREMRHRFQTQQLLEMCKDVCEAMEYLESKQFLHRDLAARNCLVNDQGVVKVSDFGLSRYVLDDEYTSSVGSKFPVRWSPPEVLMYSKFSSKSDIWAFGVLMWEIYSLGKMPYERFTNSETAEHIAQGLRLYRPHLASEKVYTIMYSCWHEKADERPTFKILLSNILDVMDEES
UniProt P42685, sequence (whole entry, looked up): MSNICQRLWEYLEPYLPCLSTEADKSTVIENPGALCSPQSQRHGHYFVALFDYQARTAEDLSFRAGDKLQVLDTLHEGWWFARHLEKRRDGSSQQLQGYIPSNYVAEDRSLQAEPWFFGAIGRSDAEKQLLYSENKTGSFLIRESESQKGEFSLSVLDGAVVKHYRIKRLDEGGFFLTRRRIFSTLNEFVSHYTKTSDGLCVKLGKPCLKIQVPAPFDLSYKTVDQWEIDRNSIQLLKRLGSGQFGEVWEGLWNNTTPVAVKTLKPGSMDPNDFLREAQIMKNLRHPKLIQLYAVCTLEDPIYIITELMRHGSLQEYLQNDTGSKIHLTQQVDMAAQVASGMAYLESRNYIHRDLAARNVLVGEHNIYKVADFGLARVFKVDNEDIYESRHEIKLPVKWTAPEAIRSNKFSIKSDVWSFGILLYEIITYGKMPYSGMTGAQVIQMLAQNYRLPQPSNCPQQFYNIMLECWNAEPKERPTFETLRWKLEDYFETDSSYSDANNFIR
UniProt Q9UEE5, sequence (whole entry, looked up): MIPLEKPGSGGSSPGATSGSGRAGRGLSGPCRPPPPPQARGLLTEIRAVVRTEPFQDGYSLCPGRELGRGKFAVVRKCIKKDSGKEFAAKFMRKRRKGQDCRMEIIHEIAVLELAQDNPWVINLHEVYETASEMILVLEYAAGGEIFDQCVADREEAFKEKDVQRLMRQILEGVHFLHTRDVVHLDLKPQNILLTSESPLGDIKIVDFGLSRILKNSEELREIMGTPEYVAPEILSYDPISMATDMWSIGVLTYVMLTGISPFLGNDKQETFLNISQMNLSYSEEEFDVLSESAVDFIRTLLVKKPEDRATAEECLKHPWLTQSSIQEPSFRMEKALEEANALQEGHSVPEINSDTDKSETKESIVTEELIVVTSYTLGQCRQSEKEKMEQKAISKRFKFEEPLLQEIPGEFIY

Series 1
SMILES: CC(C)(O)c1cncc(-c2nc3ccc(F)cc3n2C2CC2)c1
Concentration: 1 µM
target	observed	technique	remaining binding [%]
Phosphatidylinositol 5-phosphate 4-kinase type-2 gamma (PIP4K2C, Homo sapiens, UniProt Q8TBX8)	cell-free assay	competition with immobilised ligand	100
Rhodopsin kinase GRK1 (GRK1, Homo sapiens, UniProt Q15835)	cell-free assay	competition with immobilised ligand	100
Serine/threonine-protein kinase MRCK gamma (CDC42BPG, Homo sapiens, UniProt Q6DT37)	–	competition binding	100
Receptor-type tyrosine-protein kinase FLT3 (FLT3, Homo sapiens, UniProt P36888, F691L/ITD)	cell-free assay	competition with immobilised ligand	100
Phosphatidylinositol 4-phosphate 5-kinase type-1 gamma (PIP5K1C, Homo sapiens, UniProt O60331)	cell-free assay	competition with immobilised ligand	100
Protein kinase C epsilon type (PRKCE, Homo sapiens, UniProt Q02156)	cell-free assay	competition with immobilised ligand	100
Mitogen-activated protein kinase 1 (MAPK1, Homo sapiens, UniProt P28482)	cell-free assay	competition with immobilised ligand	100
Serine/threonine-protein kinase BRSK2 (BRSK2, Homo sapiens, UniProt Q8IWQ3)	cell-free assay	competition with immobilised ligand	100
Serine/threonine-protein kinase 17A (STK17A, Homo sapiens, UniProt Q9UEE5)	cell-free assay	competition with immobilised ligand	94
Cyclin-dependent kinase 18 (CDK18, Homo sapiens, UniProt Q07002)	cell-free assay	competition with immobilised ligand	100
Serine/threonine-protein kinase MAK (MAK, Homo sapiens, UniProt P20794)	cell-free assay	competition with immobilised ligand	100
Serine/threonine-protein kinase ULK1 (ULK1, Homo sapiens, UniProt O75385)	cell-free assay	competition with immobilised ligand	100
Tyrosine-protein kinase FRK (FRK, Homo sapiens, UniProt P42685)	cell-free assay	competition with immobilised ligand	100
Ribosomal protein S6 kinase alpha-6, N-terminal kinase domain (RPS6KA6, Homo sapiens, UniProt Q9UK32)	cell-free assay	competition with immobilised ligand	100
Fibroblast growth factor receptor 3 (FGFR3, Homo sapiens, UniProt P22607)	cell-free assay	competition with immobilised ligand	100

Series 2
Target: Interferon regulatory factor 5, full length, phosphomimetic (IRF5, Homo sapiens, UniProt Q13568-2, residues 1-514, S451D/S453D/S456D/S462D)
Technique: protein-binding microarray
Form: double-stranded DNA, one strand shown
Matrix: in vitro
Concentration: 940 nM top
Notes: 60-bp whole probe
With: salmon DNA 0.4 mg/ml
Relative to: random background probes
Direction: higher = stronger binding
Constant ends, left off below: GCCTAGCAC … GTCTTGATTCGCTTGACGCTGCTG
Strand	fitted relative affinity [z-score]
GACGGACTGGGTATCGGGACGTGCTAG	0.747
GGCGATTCCAGTTTCGAGACGTGCTAG	4.76
TCACAGCTATTTTTAGGACTGTGCTAG	0.0221
TCAATTATAACACTCTTACTGTGCTAG	0.442
GTAGGACTGGGACTGGGTTAGTGCTAG	-0.427
TCAAGATTTTTTTTCCTACTGTGCTAG	0.865
TTAGGGATCCTTTTCCTTTAGTGCTAG	-0.191
GAAGGTTTCGGGTATCGGGACGTGCTA	8.55

Series 3
Compound: O=C1c2ccccc2-c2nc3nnnn3nc21
Observed: enzyme activity
Action: inhibitor
Concentration: 0.5 µM
Relative to: control
target	remaining activity [%]
Tyrosine-protein kinase BTK (BTK, Homo sapiens, UniProt Q06187)	90.6
Casein kinase I isoform alpha (CSNK1A1, Homo sapiens, UniProt P48729)	85.8
Serine/threonine-protein kinase 38 (STK38, Homo sapiens, UniProt Q15208)	46.6
Mitogen-activated protein kinase 13 (MAPK13, Homo sapiens, UniProt O15264)	95.6
Ephrin type-A receptor 5 (EPHA5, Homo sapiens, UniProt P54756)	81.5
Tyrosine-protein kinase Lyn (LYN, Homo sapiens, UniProt P07948)	85.2
Mitogen-activated protein kinase kinase kinase 10 (MAP3K10, Homo sapiens, UniProt Q02779)	94.6
Serine/threonine-protein kinase Nek4 (NEK4, Homo sapiens, UniProt P51957)	96.1
Leucine-rich repeat serine/threonine-protein kinase 2 (LRRK2, Homo sapiens, UniProt Q5S007)	85.6
Protein kinase C delta type (PRKCD, Homo sapiens, UniProt Q05655)	102
Mitogen-activated protein kinase 12 (MAPK12, Homo sapiens, UniProt P53778)	92.5
MAP kinase-interacting serine/threonine-protein kinase 2 (MKNK2, Homo sapiens, UniProt Q9HBH9)	78.2
Protein kinase C iota type (PRKCI, Homo sapiens, UniProt P41743)	85.7
Mitogen-activated protein kinase kinase kinase kinase 2 (MAP4K2, Homo sapiens, UniProt Q12851)	79.4
Dual specificity mitogen-activated protein kinase kinase 6 (MAP2K6, Homo sapiens, UniProt P52564)	85.7

Series 4
Target: ABI1, truncated, D143A, DHFR fusion (Arabidopsis thaliana)
Technique: DHFR PCA, deep sequencing
Matrix: yeast
Notes: methotrexate growth selection, single substitutions
With: (+)-ABA 1.4 µM
Relative to: wild-type fitted maximum
Direction: higher = stronger binding
Starting sequence: PYL1, truncated, DHFR fusion (Arabidopsis thaliana); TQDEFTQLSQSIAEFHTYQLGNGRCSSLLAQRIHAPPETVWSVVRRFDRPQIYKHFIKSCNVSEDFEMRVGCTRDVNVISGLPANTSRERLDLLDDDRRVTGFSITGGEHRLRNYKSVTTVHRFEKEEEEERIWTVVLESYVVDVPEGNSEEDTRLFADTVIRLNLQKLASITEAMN; partner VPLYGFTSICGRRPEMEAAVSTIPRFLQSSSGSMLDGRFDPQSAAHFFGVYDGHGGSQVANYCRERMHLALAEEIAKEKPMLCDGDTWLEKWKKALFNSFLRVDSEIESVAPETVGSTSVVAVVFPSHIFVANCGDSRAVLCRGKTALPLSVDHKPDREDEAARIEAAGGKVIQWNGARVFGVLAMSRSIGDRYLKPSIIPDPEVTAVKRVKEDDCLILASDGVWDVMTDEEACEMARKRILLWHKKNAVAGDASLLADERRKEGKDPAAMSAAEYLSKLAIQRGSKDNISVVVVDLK
Substitution	relative binding score [%]
R163P	17.5
F47Y	2.03
F56Y	7.36
E174R	2.06
E147V	35.2
H55Q	92.8
K58N	14
A35W	-15.3

Some of these lines once more (series 1):
target	observed	technique	remaining binding [%]
Serine/threonine-protein kinase MRCK gamma (CDC42BPG, Homo sapiens, UniProt Q6DT37)	–	competition binding	100
Receptor-type tyrosine-protein kinase FLT3 (FLT3, Homo sapiens, UniProt P36888, F691L/ITD)	cell-free assay	competition with immobilised ligand	100
Phosphatidylinositol 4-phosphate 5-kinase type-1 gamma (PIP5K1C, Homo sapiens, UniProt O60331)	cell-free assay	competition with immobilised ligand	100
Protein kinase C epsilon type (PRKCE, Homo sapiens, UniProt Q02156)	cell-free assay	competition with immobilised ligand	100
